Measurements from different studies.
Each line is one published result; not all experiments were run side by side. Numbers after ± are the reported error.

| Structure (SMILES) | cell line | host | route | dose | time | setting | tumour growth inhibition [%] |
| --- | --- | --- | --- | --- | --- | --- | --- |
| C[C@]12CC[C@H](n3ccnc3)CC1=CC[C@@H]1[C@@H]2CC[C@]2(C)C(n3cnc4ccccc43)=CC[C@@H]12.Cl.Cl |  | mouse CWR22Rv1 xenograft | oral | 20 mg/kg once daily | 16 days | 5 days per week | 153 |
| C=CC(=O)Nc1cc(Nc2nccc(Nc3cc(Cl)c(F)cc3C(C)(C)O)n2)c(OC)cc1N1CC[C@@H](N(C)C)C1 | NCI-H2073 parental, EGFR wild type | BALB/c nude mouse, NCI-H2073 xenograft |  | 25 mg/kg twice daily | 21 days |  | 91.6 |
| COCc1cc(C(=O)Nc2cc([C@H]3CC[C@@H](OC(=O)NC(C)C)C3)[nH]n2)n(C)n1 | MCF7 xenograft | NSG mouse | oral twice daily | medium dose |  |  | 64 |
| O=C1CC[C@H](N2Cc3cc(N4CCN(CC5CCN(c6ccc([C@@H]7c8ccc(O)cc8CC[C@@H]7c7ccccc7)cc6)CC5)CC4)ccc3C2=O)C(=O)N1 |  | mouse MCF7 orthotopic xenograft | oral | 10 mg/kg once daily | 28 days |  | 98 |
| CCCCc1nc2cc(/C=C/C(=O)NO)ccc2n1CCN(CC)CC |  | mouse, MOLM-13 subcutaneous xenograft |  | 125 mg/kg every other day | day 7 |  | 42 |
| Cl.O=C(c1cc(Cc2n[nH]c(=O)c3ccccc23)ccc1F)N1CC(CNC2CC2)C1 |  | athymic nude mouse, sample A ovarian PDX | oral | 50 mg/kg once daily | 63 days |  | 135 |
| C[C@@H]1COCCN1c1cc([C@]2(O)C[C@H]3CC[C@@H](C2)O3)c2cnn(-c3cc[nH]n3)c2n1 | SUM149PT xenograft | mouse |  | 15 mg/kg QD x3 | day 42 |  | 71.2 ± 2.4 |
| COc1ccc(F)cc1C(=O)NCc1ccc(-c2nn([C@@H](C)C(F)(F)F)c(N)c2C(N)=O)cc1 |  | mouse Rec1 xenograft | oral | 30 mg/kg twice daily |  |  | 84 |

For quick reference, copied from above:
| Structure (SMILES) | cell line | host | route | dose | time | setting | tumour growth inhibition [%] |
| --- | --- | --- | --- | --- | --- | --- | --- |
| CCCCc1nc2cc(/C=C/C(=O)NO)ccc2n1CCN(CC)CC |  | mouse, MOLM-13 subcutaneous xenograft |  | 125 mg/kg every other day | day 7 |  | 42 |
